Measured values gathered from unrelated publications.
Every numbered part comes from another study and shows a few of its results, in no order. Substitutions count along the parent as printed.

Set 1
Target: Histone acetyltransferase KAT6A, winged helix 2, GST fusion (KAT6A, Homo sapiens, UniProt Q92794, residues 85-181)
Method: protein binding microarray
Molecule type: double-stranded DNA, one strand shown
Sample: in vitro
Tested at: not given
Notes: 8-mer, flanks averaged, mean of 2 arrays, mostly near background
Baseline: not given
Direction: higher = stronger binding
Target sequence (chain): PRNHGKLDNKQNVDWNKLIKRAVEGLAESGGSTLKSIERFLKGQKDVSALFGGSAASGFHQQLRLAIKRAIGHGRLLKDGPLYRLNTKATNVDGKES
`CAAGGCAA` gave an E-score of 0.0878.
With `GCAGTCCA` the E-score was -0.0574.
`ATGACTAA` gave an E-score of -0.238.
With `GGCCGGTA` the E-score was 0.168.
The E-score of `GTAGAAGA` is reported as -0.145.
`GCGGTACA` gave an E-score of 0.11.
With `ACCACAGT` the E-score was 0.127.
For `GGACTGTA`, the E-score was -0.259.
`GACCCCAA` gave an E-score of -0.107.
The E-score of `GTTAGGTA` is reported as 0.00879.
For `CAGAAATG`, the E-score was 0.0578.
With `AGGGAGAG` the E-score was -0.126.
For `CGATCGGC`, the E-score was 0.157.
`GCGATTAA` gave an E-score of 0.161.
`TGGACCAA` has an E-score of -0.074.
The E-score of `AAACACCT` is reported as 0.119.
`ACCGTTAG` has an E-score of -0.0868.
`CACCGCTC` gave an E-score of -0.0213.
With `GCTATCCC` the E-score was 0.0329.
`GTCGTGCA` has an E-score of -0.131.
With `ACATTCAA` the E-score was -0.121.
The E-score of `CGTGGCCA` is reported as 0.0592.

Set 2
Target: ABI1, truncated, D143A, DHFR fusion (Arabidopsis thaliana)
Method: DHFR PCA, deep sequencing
Sample: yeast
Notes: methotrexate growth selection, single substitutions
Together with: (+)-ABA 4.8 µM
Baseline: wild-type fitted maximum
Direction: higher = stronger binding
Parent: PYL1, truncated, DHFR fusion (Arabidopsis thaliana); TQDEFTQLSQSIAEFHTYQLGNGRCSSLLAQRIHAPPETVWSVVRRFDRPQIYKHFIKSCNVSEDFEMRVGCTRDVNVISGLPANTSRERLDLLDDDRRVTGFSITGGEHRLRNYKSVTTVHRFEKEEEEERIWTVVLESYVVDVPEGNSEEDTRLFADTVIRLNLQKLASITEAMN; partner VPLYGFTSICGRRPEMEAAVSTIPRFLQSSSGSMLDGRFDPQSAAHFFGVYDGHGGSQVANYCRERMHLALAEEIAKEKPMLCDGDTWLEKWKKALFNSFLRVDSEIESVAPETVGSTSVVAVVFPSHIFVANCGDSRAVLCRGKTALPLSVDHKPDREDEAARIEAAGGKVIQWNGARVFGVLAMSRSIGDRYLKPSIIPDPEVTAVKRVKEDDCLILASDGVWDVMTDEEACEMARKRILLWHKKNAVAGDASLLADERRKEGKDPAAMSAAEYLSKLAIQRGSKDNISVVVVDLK
For `E130C`, “relative binding score” read 72.3%.
For `Y53Q`, “relative binding score” read -9.02%.
Under “relative binding score”, `G23V` is recorded as 10.3%.
`Q10G`: “relative binding score” 78.6%.
`P37E` — result for “relative binding score”: 30.2%.
Under “relative binding score”, `A175P` is recorded as 35%.
For `P50H`, “relative binding score” read 16.9%.
For `P37W`, “relative binding score” read 7.51%.
For `V161L`, “relative binding score” read 47.6%.
For `R74C`, “relative binding score” read -17.1%.
Under “relative binding score”, `G107N` is recorded as 19.3%.
For `V70E`, “relative binding score” read 49.5%.
`V137D`: “relative binding score” 7.43%.
Under “relative binding score”, `T39C` is recorded as 63%.
`Q10P`: “relative binding score” 68.9%.
`V43Y`: “relative binding score” 43.4%.
Under “relative binding score”, `T86S` is recorded as 78.4%.
For `K54E`, “relative binding score” read -2.31%.
`A13F` — result for “relative binding score”: 48.2%.
`D75K` — result for “relative binding score”: 70.6%.
For `K168R`, “relative binding score” read 68.7%.
For `K116R`, “relative binding score” read 76.3%.
Under “relative binding score”, `Q51R` is recorded as 22.8%.
For `N165Q`, “relative binding score” read -0.633%.
For `T154M`, “relative binding score” read 24.5%.

Set 3
Target: RING finger protein unkempt homolog, zinc fingers 1-6, SBP tag (UNK, Homo sapiens, UniProt Q9C0B0, residues 30-357)
UniProt Q9C0B0, sequence (30-357, looked up): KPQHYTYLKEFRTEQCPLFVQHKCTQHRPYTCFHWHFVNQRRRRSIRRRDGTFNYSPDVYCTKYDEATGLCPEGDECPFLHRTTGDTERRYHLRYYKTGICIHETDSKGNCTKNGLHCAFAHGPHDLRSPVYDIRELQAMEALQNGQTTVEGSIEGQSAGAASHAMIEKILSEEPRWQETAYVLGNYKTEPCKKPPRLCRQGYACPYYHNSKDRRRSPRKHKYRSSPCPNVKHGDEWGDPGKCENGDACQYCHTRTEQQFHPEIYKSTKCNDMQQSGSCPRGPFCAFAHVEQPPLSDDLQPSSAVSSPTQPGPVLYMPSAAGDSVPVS
Method: RNA Bind-n-Seq
Molecule type: RNA
Sample: in vitro
Tested at: 100 nM
Notes: RNA with constant flanks, vertebrate orthologous sites, ends assumed
Baseline: input RNA pool
Direction: higher = stronger binding
`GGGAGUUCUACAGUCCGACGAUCGACCUCCUGAACUUCUAGCUUUCAAGUUGUGGCUGUUUUAGAUACUGAUGUUCUUUCCCUUAAGAGUUGUUUCCUGUUUCCUGCCUUCUCUUCCUCUGUUCCCAAGGUUUGACUCAUGGACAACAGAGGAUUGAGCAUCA` gave a bound/input enrichment of 1.04 ratio.
For `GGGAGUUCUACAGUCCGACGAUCUUUUUUCUUUUUUUUUUUAAUUUAAUUUUUCCUUUUGGGGGUAAAGUUUGCUCUACCAAAUAGUGAUUGUAACAAAUUGAUCUGUUUUGGAUGUUGCUAUAGUGACAUGCAGUUAUAUAUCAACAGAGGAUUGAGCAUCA`, the bound/input enrichment was 1.6 ratio.
`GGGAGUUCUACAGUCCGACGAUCUAUUUUCUUACUUUAGGUAUCAUUGCCCAAUGCCCAAGAUCUUUUAUGUUCAGCUGACUGUAGGAAAUAAUGAAUUUUUUGGGGAAGGAAAGACUCGACAAGCUGCUAGACACAAUGCCGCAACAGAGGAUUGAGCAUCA` has a bound/input enrichment of 0.992 ratio.
For `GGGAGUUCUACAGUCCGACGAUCAGCACCCCACGGAUUCAGGACUGGUUUUACAAAUACACCAAGUAGAUAUGGAAGUAACAGCAGAAUUGGACAACCAAGGCCAUGAUGUACUGUAACUUACUUUUACGAGGAUUAUUGACUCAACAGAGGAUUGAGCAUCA`, the bound/input enrichment was 0.349 ratio.
The bound/input enrichment of `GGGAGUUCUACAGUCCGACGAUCGUGCUCUUGUACAGCCAUUAGGUUCCUCCUCUACUUCUCCCCAGAAGGAACAAAUCUAAAAUAGAUUCCUACACAUCUGACUCUGCUGUUCUGGUUUUGUUUUCUAUCAUUAUUACAUAUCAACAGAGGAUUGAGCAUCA` is reported as 1.44 ratio.
`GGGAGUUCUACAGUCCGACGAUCCUCCCUGUUACCCCUAAAGGAGAACUUUUUAAAAUUAUGUCACCGCCACUUGUAAAAAUUUAGCAAUAUCAGAAGAAACCGCUAAUGAAGUAAGGAAUUUUGCUUAUUGUUUUGCAAACCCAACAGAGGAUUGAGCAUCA` has a bound/input enrichment of 0.417 ratio.
`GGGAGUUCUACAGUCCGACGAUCCCCUCGGGGCAGGGUGGGCCUGCCUCAGAGCGGCCAGCCAGCCUGUCAGCCAGACGGUUUUAGCUCCGUUUUUUUAAACAGUGCCCUUAUGAUUGUCCUGUACAUUCGCGGAGAUUUGGACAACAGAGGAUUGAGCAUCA` gave a bound/input enrichment of 0.342 ratio.
For `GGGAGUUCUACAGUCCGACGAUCGCACUACCUAUACCAAUUUUACAACAUUGAAUGCAAAAUAGCGAAUUUCAUAGUCACAGAGGAAGGUAGCUUUAGGGAAUUGUCUCCAUGGAUUUUACUCGUGUAGGUUUUGAAACUGUACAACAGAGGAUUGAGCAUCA`, the bound/input enrichment was 0.954 ratio.

Set 4
Target: Prothrombin, mature alpha-thrombin (F2, Homo sapiens, UniProt P00734)
Method: aptamer microarray, sandwich
Molecule type: DNA with 2'F-ANA
Sample: in vitro
Tested at: 200 nM
Notes: whole 15-mer aptamer, many near background
Together with: Cy3 exosite-II aptamer, 400 nM
Direction: higher = stronger binding
Oligonucleotide: GGTTGGTGTGGTTGG
For `2'F-ANA at 1 3 5 6 7 8 10 11 14 15`, “mean fluorescence intensity” read 51.9 a.u.
`2'F-ANA at 2 5 6 8 9 10 11 13 14 15`: “mean fluorescence intensity” 47.1 a.u.
For `2'F-ANA at 3 6 7 8 9 10 12 14 15`, “mean fluorescence intensity” read 403 a.u.
For `2'F-ANA at 2 6 7 8 9 10 12 14 15`, “mean fluorescence intensity” read 112 a.u.
`2'F-ANA at 2 5 6 8 14 15` — result for “mean fluorescence intensity”: 53 a.u.
For `2'F-ANA at 1 5 6 9 10 13 14`, “mean fluorescence intensity” read 45.2 a.u.
`2'F-ANA at 2 3 5 6 11 13 15`: “mean fluorescence intensity” 65.5 a.u.
`2'F-ANA at 1 2 3 5 8 9 15`: “mean fluorescence intensity” 69.3 a.u.
For `2'F-ANA at 2 3 4 5 12 15`, “mean fluorescence intensity” read 183 a.u.
`2'F-ANA at 3 8 9 10 13`: “mean fluorescence intensity” 538 a.u.
Under “mean fluorescence intensity”, `2'F-ANA at 1 3 6 7 10 11 12` is recorded as 98.8 a.u.
`2'F-ANA at 2 3 8 10 12 13`: “mean fluorescence intensity” 455 a.u.
For `2'F-ANA at 1 2 4 6 8 9 11 15`, “mean fluorescence intensity” read 102 a.u.
Under “mean fluorescence intensity”, `2'F-ANA at 1 9 11 13` is recorded as 143 a.u.
`2'F-ANA at 2 8 10 11 13 15` — result for “mean fluorescence intensity”: 152 a.u.
Under “mean fluorescence intensity”, `2'F-ANA at 1 2 6 9 10 11 13 15` is recorded as 65 a.u.
`2'F-ANA at 3 4 5 9 10 12 15`: “mean fluorescence intensity” 78.9 a.u.
`2'F-ANA at 2 3 6 8 9 10 15` — result for “mean fluorescence intensity”: 343 a.u.
Under “mean fluorescence intensity”, `2'F-ANA at 2 3 4 6 7 9 12 13 14 15` is recorded as 217 a.u.
`2'F-ANA at 2 4 9 12 14`: “mean fluorescence intensity” 122 a.u.
